Experimental data pooled from the literature.
Compare with care: the assays were run in different laboratories. Several values in a cell are separate wells, animals, samples, runs or records. ± marks the error that the study gave.
TDP1: Tyrosyl-DNA phosphodiesterase 1 (TDP1, Homo sapiens, UniProt Q9NUW8)
Sequence of UniProt Q9NUW8 (whole entry, looked up): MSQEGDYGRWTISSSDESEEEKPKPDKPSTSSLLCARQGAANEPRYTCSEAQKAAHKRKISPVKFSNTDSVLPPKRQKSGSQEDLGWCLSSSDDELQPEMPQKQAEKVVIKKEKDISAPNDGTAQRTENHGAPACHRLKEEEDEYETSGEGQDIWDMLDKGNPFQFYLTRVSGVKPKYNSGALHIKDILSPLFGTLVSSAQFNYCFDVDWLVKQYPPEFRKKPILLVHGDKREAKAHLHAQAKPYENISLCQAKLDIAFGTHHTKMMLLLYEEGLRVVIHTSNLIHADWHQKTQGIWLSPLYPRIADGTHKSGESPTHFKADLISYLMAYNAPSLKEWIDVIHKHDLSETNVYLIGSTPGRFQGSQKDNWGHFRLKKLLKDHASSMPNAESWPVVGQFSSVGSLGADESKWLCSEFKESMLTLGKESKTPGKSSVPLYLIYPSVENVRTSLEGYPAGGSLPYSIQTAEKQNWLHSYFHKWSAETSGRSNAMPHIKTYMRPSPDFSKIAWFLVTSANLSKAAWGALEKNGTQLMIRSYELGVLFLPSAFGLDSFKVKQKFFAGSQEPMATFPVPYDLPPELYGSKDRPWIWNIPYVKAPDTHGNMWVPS

CCCCN1C(=O)c2cccc3c(NCCCN4CCOCC4)ccc(c23)C1=O  emission maximum (acetonitrile): 520 nm
CCC(CC)CNC(=N)NC(=N)NCCCCCCNC(=N)NC(=N)NCC(CC)CC  scaled CLint (metabolic stability; monkey, hepatocytes; 1 µM): 29.6 mL/min/kg
CC(C)(O)c1ncc([S@](N)(=O)=NC(=O)Nc2c3c(cc4c2CCC4)CCC3)s1  subjects with TEAEs (refers to: immune system disorders; healthy human; oral, dose not given, all active doses pooled): 2%
C=CC(=O)Nc1cc(Nc2nccc(-c3cn(C)c4ccccc34)n2)c(OC)cc1N(C)CCNC  recovery (storage stability; human plasma; 30 d, on ice, LQC level): 56.7%
N#Cc1cccc(N2Cc3cn(Cc4ccc(F)cc4)nc3C2)c1  half-life (metabolic stability; rat, liver microsomes): 0.0233 h
O=C(NS(=O)(=O)c1cccs1)c1cc2ccccc2n1Cc1ccc(Br)c2ccccc12  AUC(0-last) (mouse, plasma; oral, 1 mg/kg): 204 ng·h/mL
C=C[C@]1(C)C[C@@H](OC(=O)CSc2ccc(NC(=O)c3ccco3)cc2)[C@]2(C)[C@H](C)CC[C@]3(CCC(=O)[C@H]32)[C@@H](C)[C@@H]1O  plasma concentration (Mycoplasma gallisepticum-infected chickens, plasma; intramuscular, 5 mg/kg, 2 h): 336 ng/mL and 133 ng/mL and 279 ng/mL and 138 ng/mL and 141 ng/mL and 454 ng/mL and 271 ng/mL
CCC1CNC(CC)CN(C(C(=O)[O-])c2ccc(C(=O)[O-])cc2)C(CC)CN(CC(=O)[O-])C(CC)CN1.[Mn+2] (centres unmarked)  Mn content (ICP-MS; BALB/c mouse, kidney; intravenous, 0.05 mmol/kg, 1440 min, without anaesthesia): 1.85 ± 0.2 µg/g
C=CCn1cc(C=NOCc2ccc(-c3nc4cc(-c5ccccc5)ccn4c3Nc3ccc(C(=O)O)cc3)cc2)c2ccccc21 (mixture of isomers)  inhibition (TDP1; enzyme activity, inhibitor; 100 µM, unpurified compound): 24.3%
O=C(CCc1cn([C@@H]2O[C@H](C[18F])[C@@H](O)[C@H](O)[C@H]2O)nn1)Nc1ccc(-c2nnc(-c3ccccn3)nn2)nc1  muscle uptake (LS174T xenograft, BALB/c nude mouse, muscle; intravenous, 1 h, added: saline instead of CC49-TCO): 0.001 ± 0.0002 %ID/g
Cc1ccc(CN2C(=O)/C(=N\c3ccc(Cl)cc3Br)c3ccccc32)cc1  RDW (mouse, blood; 200 mg/kg): 15.6 ± 0.31%
CCCCN1C(=O)c2cccc3c(NCCCCCCN4CCOCC4)ccc(c23)C1=O  emission maximum (ethylene glycol): 543 nm
COc1ccnc(C(=O)N[C@H]2COC(=O)[C@H](Cc3ccccc3)[C@@H](OC(=O)C(C)C)[C@H](C)OC2=O)c1O  Freundlich KFoc (UK acid sand A1, OC 0.8%; pH 3.9): 2810 mL/g
CN[C@H]1CC[C@H]([C@@]2(C)Oc3c(Cl)cc(C(=O)NCc4c(C)cc(C)[nH]c4=O)c(C)c3O2)CC1  excretion (healthy men, feces; oral, 200 mg [14C]-valemetostat; reference: dose): 1.64%
C=C(NC(=O)c1csc(-c2nc3c(cc2O)-c2nc(cs2)C(=O)NC(C(C)O)C(=O)NC(=C(C)OC)c2nc(cs2)C(=O)NC2c4nc(cs4)C(=O)NC(COC(=O)c4c5c6c(cccc6n4O)COC(=O)C(OC4CC(C)(O)C(N(C)C)C(C)O4)C2OC5)c2nc-3cs2)n1)C(N)=O (centres unmarked)  MRT(0-t) (ICR mice, Streptococcus pneumoniae ATCC 49169 infected, immunocompromised, blood; intravenous, 2 mg/kg/day three times daily): 7.54 h
CCCC[C@H](NC(=O)CNC(=O)CNC(=O)[C@H](CCCCNC(=O)[C@H](CC(=O)O)NC(=O)C(C)c1ccc(CC(C)C)cc1)NC(=O)CN1CCN(CC(=O)O)CCN(CC(=O)O)CCN(CC(=O)O)CC1)C(=O)N[C@H]1CC(=O)NCCCC[C@@H](C(N)=O)NC(=O)[C@H](Cc2c[nH]c3ccccc23)NC(=O)[C@H](CCCNC(=N)N)NC(=O)[C@@H](Cc2ccccc2)NC(=O)[C@H](Cc2c[nH]cn2)NC1=O (some centres unmarked) [lutetium-177 labelled]  tumour-to-tissue ratio (C57 mice, tumour; 2 h; reference: blood): 27.7
CCCCN1C(=O)c2cccc3c(NCCCCCCCCCCN4CCOCC4)ccc(c23)C1=O  emission maximum (dichloromethane): 516 nm
COc1cccc(OC)c1-c1cc(C(=O)NC2(C(=O)O)C3CC4CC(C3)CC2C4)nn1-c1ccc(C(=O)N(C)CCOCCOCCN(C)C(=O)[C@H](CCCCNC(=O)[C@H](CC(C)C)NC(=O)C2OC2C(=O)O)NC(=O)CN2CCN(CC(=O)[O-])CCN(CC(=O)[O-])CCN(CC(=O)[O-])CC2)cc1C(C)C.[177Lu+3] (mixture of isomers)  tumour-to-spleen ratio (mouse HT-29 xenograft; 168 h, biodistribution; reference: tumour over spleen): 1.67
CC[C@H](C)[C@@H]1NC(=O)[C@H](Cc2ccccc2)NC(=O)CCSCc2cccc(c2)CSCCNC(=O)[C@H](C)NC(=O)[C@H](Cc2ccc(O)cc2)NC(=O)[C@H](CC(=O)O)NC(=O)[C@H](Cc2ccc(F)cc2)NC(=O)[C@H](CC(C)C)NC(=O)[C@H](CCCCN)NC1=O  membrane retention (PAMPA; 200 µM, 5 h, pH 7.4): < -0.1%
CCCCN1C(=O)c2cccc3c(NCCCCCCCCN4CCOCC4)ccc(c23)C1=O  emission maximum (dichloromethane): 517 nm
CC(C)C[C@H](NC(=O)[C@@H](CCCCNC(=O)[C@@H](Cc1ccccc1)NC(=O)CCCCCCCNC(=O)CN1CCN(CC(=O)O)CCN(CC(=O)O)CCN(CC(=O)O)CC1)NC(=O)[C@H](Cc1ccc(O)cc1)NC(=O)[C@H](CO)NC(=O)[C@H](Cc1c[nH]c2ccccc12)NC(=O)[C@H](Cc1c[nH]cn1)NC(=O)[C@@H]1CCC(=O)N1)C(=O)N[C@@H](CCCNC(=N)N)C(=O)N1CCC[C@H]1C(=O)NCC(N)=O [indium-111 labelled]  excreted dose (male athymic nude mice, DU-145 prostate cancer xenograft, urine; intravenous, 0.037 MBq, 4 h): 90.5 ± 2.53%
COc1cc(N2CCN(C(=O)C3CCCN3)CC2)ccc1Nc1ncc(Cl)c(Nc2ccccc2P(C)(C)=O)n1 (centres unmarked)  body weight (nude mice, NCI-H3122 xenograft; intraperitoneal, 10 mg/kg every other day, day 7): 22.8 g and 27.1 g and 24.9 g and 24.5 g and 25.5 g
COc1cccc(OC)c1-c1cc(C(=O)NC2(C(=O)O)C3CC4CC(C3)CC2C4)nn1-c1ccc(C(=O)N(C)CCOCCN(C)C(=O)[C@H](CCCCNC(=O)[C@H](CC(C)C)NC(=O)C2OC2C(=O)O)NC(=O)CN2CCN(CC(=O)[O-])CCN(CC(=O)[O-])CCN(CC(=O)[O-])CC2)cc1C(C)C.[177Lu+3] (mixture of isomers)  tumour-to-spleen ratio (mouse HT-29 xenograft; 4 h, biodistribution; reference: tumour over spleen): 7.95
Cc1cc(-c2ccc(C(=O)[C@@H]3CCCC[C@H]3C(=O)Nc3cnn4c3C(=O)NCC4)cc2)[nH]n1  cumulative recovery of radioactivity (human, urine; oral, 200 mg, mean of six subjects; reference: dose): 5.9%
CCCCN1C(=O)c2cccc3c(NCCN4CCOCC4)ccc(c23)C1=O  emission maximum (methanol): 519 nm
Cc1nc(N)nc2c1C(=O)N[C@@H](c1ccc(F)cc1-c1cccc(O[11CH3])n1)C2  tracer uptake (ex vivo biodistribution; healthy mice, heart; 60 min post-injection, baseline, vehicle pre-treatment): 0.9 ± 0.1 %ID
CCOC(=O)c1nc2cc(Cl)c(Cl)cc2nc1N1CCN(C(=O)Nc2ccc(N3CCNCC3)cc2)CC1  Vss (male mice, plasma; intravenous, 3 mg/kg): 22.4 L/kg
C[C@H](CCC(=O)NCC(=O)O)[C@H]1CC[C@H]2[C@@H]3[C@H](O)C[C@@H]4C[C@H](OS(=O)(=O)O)CC[C@]4(C)[C@H]3CC[C@]12C  relative peak deviation (human, plasma; endogenous baseline diurnal; reference: daily mean concentration): 95.2 ± 10%
CC[C@H](C)[C@@H]1NC(=O)[C@H](Cc2ccc(O)cc2)NC(=O)CCCSC[C@@H](C(=O)N(CC(=O)N[C@@H](CC(C)C)C(=O)NCC(N)=O)Cc2ccc(F)cc2)NC(=O)[C@H](CC(N)=O)NC(=O)[C@H](CCC(N)=O)NC1=O  adverse drug reactions (human; intranasal, 50 µg repeated doses): 50%
CC(=O)N([O-])CCCCCNC(=O)CCC(=O)N([O-])CCCCCNC(=O)CCC(=O)N([O-])CCCCCN.[89Zr+4]  intact compound (0.9 % NaCl saline; 1 days, pH 4.5, 37 °C): 97.8 ± 1.6%
[123I]c1ccc2nc(-c3ccc(-n4ccnn4)nc3)cn2c1  tracer uptake (male Wistar rat, heart; intravenous, 4 MBq, 30 min): 0.2 %ID/g
O=C(Nc1cnccc1-c1ccc([18F])nc1)c1ccnc(NC(=O)C2CC2)c1  SUV (FVB/NJ mice, both sexes, liver; intravenous, 5 min, median, no P-gp inhibitor): 6.63
C/C(N)=N/C(=N\S(=O)(=O)c1ccc(C(F)(F)F)cc1)N1C[C@H](c2ccccc2)C(c2ccc(Cl)cc2)=N1  Cmax (male C57BL/6 mouse, liver; oral, 10 mg/kg): 8890 ng/mL
CN(C)C(=O)c1ccnc(N2Cc3cn(Cc4cc(Cl)cc(Cl)c4)nc3C2)n1  half-life (metabolic stability; rat, liver microsomes): 0.533 h
COc1cccc(OC)c1-c1cc(C(=O)NC2(C(=O)O)C3CC4CC(C3)CC2C4)nn1-c1ccc(C(=O)NCCNC(=O)[C@H](CCCCNC(=O)[C@H](CC(C)C)NC(=O)C2OC2C(=O)O)NC(=O)CN2CCN(CC(=O)[O-])CCN(CC(=O)[O-])CCN(CC(=O)[O-])CC2)cc1C(C)C.[177Lu+3] (mixture of isomers)  tumour-to-pancreas ratio (mouse HT-29 xenograft; 72 h, biodistribution; reference: tumour over pancreas): 17.9
CN(C)/C=C/c1c(C=NOCc2ccc(-c3nc4cc(-c5ccccc5)ccn4c3Nc3ccc(C(=O)O)cc3)cc2)c2cc([N+](=O)[O-])ccc2n1C  inhibition (TDP1; enzyme activity, inhibitor; 100 µM): 97%
CN1Cc2c(NCc3ccc(CN4CCN(c5ccc(C#N)c(F)c5)CC4)cc3)cccc2C(=O)N1C1CCC(=O)NC1=O (centres unmarked)  organ weight (mouse xenograft, heart; dose not given): 111 mg
CCCCN1C(=O)c2cccc3c(NCCCCN4CCOCC4)ccc(c23)C1=O  emission maximum (DMSO): 532 nm
COc1ccc(Nc2nc(Nc3ccc(OCCOCCOCC[18F])cc3)ncc2Br)cc1  tissue uptake (ICR mice, S180 tumour-bearing, bone; intravenous, 370 kBq, 60 min): 3.9 ± 0.17 %ID/g
Cc1[nH]nc2c1N=C(c1ccccc1Cl)c1cnc(N3CCOCC3)cc1N2  AUC(0-last) (nude mouse, HCC1806 xenograft, plasma; oral, 10 mg/kg once daily): 1190 ng·h/mL
O=C(Nc1cnccc1-c1ccc([18F])cc1)c1ccnc(NC(=O)C2CC2)c1  mean SUV (ex vivo biodistribution, gamma counting; GSK-3β overexpressing transgenic mouse, late stage, left kidney; intravenous, 120 min post-injection, added: tariquidar 15 mg/kg iv, at least 2 h before tracer): 1.39
COC(=O)C(C)n1nc(Cn2cc3cc(OCC[18F])c(Cl)cc3n2)c2ccccc2c1=O (racemic)  parent compound (rat, plasma; 5 min): 90%
CN1CCN(c2ccc(/C=C/c3cc(=O)cc(/C=C/c4ccc(N5CCN(C)CC5)cc4)o3)cc2)CC1  emission maximum (acetonitrile; 10 µM, 298 K): 565 nm
CCCCCCCCCCCCCCCC(=O)N[C@@H](CCC(=O)NCCCC[C@H](NC(=O)[C@H](C)NC(=O)[C@H](C)NC(=O)[C@H](CCC(N)=O)NC(=O)CNC(=O)[C@H](CCC(=O)O)NC(=O)[C@H](CC(C)C)NC(=O)[C@H](Cc1ccc(O)cc1)NC(=O)[C@H](CO)NC(=O)[C@H](CO)NC(=O)[C@@H](NC(=O)[C@H](CC(=O)O)NC(=O)[C@H](CO)NC(=O)[C@@H](NC(=O)[C@H](Cc1ccccc1)NC(=O)[C@@H](NC(=O)CNC(=O)[C@H](CCC(=O)O)NC(=O)[C@H](C)NC(=O)[C@@H](N)Cc1cnc[nH]1)[C@@H](C)O)[C@@H](C)O)C(C)C)C(=O)N[C@@H](CCC(=O)O)C(=O)N[C@@H](Cc1ccccc1)C(=O)N[C@H](C(=O)N[C@@H](C)C(=O)N[C@@H](Cc1c[nH]c2ccccc12)C(=O)N[C@@H](CC(C)C)C(=O)N[C@H](C(=O)N[C@@H](CCCNC(=N)N)C(=O)NCC(=O)N[C@@H](CCCNC(=N)N)C(=O)NCC(=O)O)C(C)C)[C@@H](C)CC)C(=O)O  MRT (Kunming mouse, plasma; subcutaneous, 50 nmol/kg): 5.4 ± 0.4 h
